Measured values from different studies.
Values joined by “and” are separate records of one study, mostly repeats; a detail may differ. Numbers after ± are the reported error.

For `CCn1cc(-c2cc(Cn3ccnc3)cc3c2CCN([C@H](c2cc(OC)ccn2)C2CC2)C3=O)c(C(F)(F)F)n1`, the EC50 was 59.5 nM (NCI-H1975; cell growth, inhibitor; 120 h).
For `CS(=O)(=O)c1ccc(-c2c(-c3ccccn3)nc3n2CCC3)cc1`, the IC50 was greater than 64000 nM (Leishmania infantum; intramacrophage amastigotes, MHOM/MA(BE)/67/ITMAP263).
With `CC(C)C[C@H](NC(=O)C[C@H](O)[C@H](CC(C)C)NC(=O)[C@H](Cc1c[nH]cn1)NC(=O)CNC(=O)[C@@H](NC(=O)[C@H](C)NC(=O)[C@H](Cc1c[nH]c2ccccc12)NC(=O)[C@H](CCC(N)=O)NC(=O)[C@@H](Cc1ccccc1)NC(=O)COCCOCCNC(=O)CCC(C(=O)O)N1CCN(CC(=O)O)CCN(CC(=O)O)CCN(CC(=O)O)CC1)C(C)C)C(N)=O` (stereo partly drawn) [lutetium-177 labelled] the tissue uptake was 0.28 ± 0.02 %ID/g (female BALB/c nu/nu mice, stomach; intravenous, 100 pmol, 4 h, with: PA 300 µg).
For `CC(S)C(=O)NCC(=O)O` (stereo not drawn), the inhibition was -44.2% (THP-1; pyroptotic LDH release; 2 µM, 40 min, with: LPS then nigericin).
For `COc1ccc2nc(-c3cc(N(C)C)ccn3)c(N(C)c3ccc(F)cc3)n2c1`, the selectivity index was 2.5 (Leishmania infantum; MHOM/MA(BE)/67/ITMAP263; 120 h; reference: CC50 macrophages over EC50 amastigotes).
`Cc1ccc(C=O)cc1` gave an inhibition of 7.15% (THP-1; pyroptotic LDH release; 2 µM, 40 min, with: LPS then nigericin).
`Cc1cc(O)c2c(c1)C(=O)c1cc(O)cc(O)c1C2=O` has a viability of 44 ± 3.33% (HK-2 co-cultured with HepaRG; MTT; 266.67 µM, 48 h; reference: untreated control).
The IC50 of `N#Cc1ccc(-c2c(-c3ccccn3)nc3n2CCC3)cn1` is reported as 50800 nM and > 64000 nM (Leishmania infantum; macrophages, MHOM/MA(BE)/67/ITMAP263, amastigote).
For `Cn1cc(-c2ccc(-c3cncc(Cl)c3N3CCC4(CCNC4=O)CC3)cc2)cn1`, “log2 fold change” read 2.57 (COLO 205; gene expression, microarray, measured: TLE1 mRNA; concentration not given, 6 h; reference: untreated cells).
With `CC(C)n1ncc2c(C(=O)NCC3(C)CNC3)cc(C3CC3)nc21` the cell protection was 1.3% and 5.28% (coxsackievirus A6; CPE; RD; 0.05 µM).
The IC50 of `CCCCN(Cc1c(-c2ccccc2)nc2ccc(C)cn12)c1cccc(C(F)(F)F)c1` is reported as 2380 nM and 1410 nM (Leishmania infantum; macrophages, MHOM/MA(BE)/67/ITMAP263, amastigote).
For `NCC(N)C(=O)O` (stereo not drawn), the inhibition was 2.98% (THP-1; pyroptotic LDH release; 2 µM, 40 min, with: LPS then nigericin).
With `CCn1cc(-c2cc(Cn3ccoc3=N)cc3c2CCN([C@@H](C)c2cc(OC)ccn2)C3=O)c(C(F)(F)F)n1` the EC50 was 5.92 nM (NCI-H1975; cell growth, inhibitor; 120 h).
With `COc1cc2c(c(O)c1OC)C(=O)c1c(cc(C)c(O[C@@H]3O[C@H](CO)[C@@H](O)[C@H](O)[C@H]3O)c1OC)C2=O` the cell viability was 66.3 ± 11.6% (HK-2 co-cultured with HepaRG; MTT; 266.67 µM, 48 h; reference: untreated control).
For `Cc1cccc(C(=O)O)c1N`, the inhibition was 27% (THP-1; pyroptotic LDH release; 2 µM, 40 min, with: LPS then nigericin).

Some of these lines once more:
The IC50 of `CCCCN(Cc1c(-c2ccccc2)nc2ccc(C)cn12)c1cccc(C(F)(F)F)c1` is reported as 2380 nM and 1410 nM (Leishmania infantum; macrophages, MHOM/MA(BE)/67/ITMAP263, amastigote).
For `CCn1cc(-c2cc(Cn3ccnc3)cc3c2CCN([C@H](c2cc(OC)ccn2)C2CC2)C3=O)c(C(F)(F)F)n1`, the EC50 was 59.5 nM (NCI-H1975; cell growth, inhibitor; 120 h).
